Assay results gathered from unrelated publications.
pEC50, pIC50, pKd, pKi: −log10 of the molar value.
CNR1 I267L: Cannabinoid receptor 1 (CNR1, Homo sapiens, UniProt P21554, I267L)
Chain of UniProt P21554 (whole entry, unmodified, looked up): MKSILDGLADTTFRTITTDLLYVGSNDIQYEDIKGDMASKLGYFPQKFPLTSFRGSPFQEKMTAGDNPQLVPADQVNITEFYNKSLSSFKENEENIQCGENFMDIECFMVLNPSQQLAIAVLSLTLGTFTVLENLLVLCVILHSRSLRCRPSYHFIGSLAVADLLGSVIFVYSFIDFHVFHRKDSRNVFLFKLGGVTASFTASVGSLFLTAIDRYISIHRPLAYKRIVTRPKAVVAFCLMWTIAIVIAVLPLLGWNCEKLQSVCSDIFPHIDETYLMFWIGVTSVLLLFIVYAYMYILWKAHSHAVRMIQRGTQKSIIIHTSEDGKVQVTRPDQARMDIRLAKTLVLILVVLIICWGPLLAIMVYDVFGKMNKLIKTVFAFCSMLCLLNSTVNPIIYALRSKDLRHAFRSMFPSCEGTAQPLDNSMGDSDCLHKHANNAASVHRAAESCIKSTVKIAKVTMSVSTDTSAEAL
CNR1: Cannabinoid receptor 1 (CNR1, Homo sapiens, UniProt P21554)

SMILES = CCCCCn1cc(C(=O)c2ccc3c(c2)CC(C)(C)C3)c2ccccc21; target = CNR1 I267L; assay = G protein activation, agonist, BRET; quantity = pEC50; result = 6.78
SMILES = CCCCCn1nc(C(=O)NC23CC4CC(CC(C4)C2)C3)c2ccccc21; target = CNR1; assay = ligand displacement in cells, radioligand; quantity = pKi; result = 7.22
SMILES = CC1=C[C@H]2c3c(O)cc(CCc4ccccc4)cc3OC(C)(C)[C@H]2CC1; target = CNR1; assay = GTPγS binding, agonist, radiometric; setting = cell membranes; quantity = pEC50; result = 6.39
SMILES = CC(=O)N/C(N)=N/C(=N\S(=O)(=O)c1ccc(C(F)(F)F)cc1)N1C[C@H](c2ccccc2)C(c2ccc(Cl)cc2)=N1; target = CNR1; assay = β-arrestin recruitment, antagonist; quantity = pIC50; result = 10.68
SMILES = O=C(c1ccc2c(c1)c1ccccc1n2CCN1CCCCC1)c1cccc2ccccc12; target = CNR1; assay = cAMP, agonist, BRET; quantity = pEC50; result = 6.96
SMILES = CCCCCn1cc(C(=O)c2cccc3ccccc23)cc1-c1ccccc1F; target = CNR1; assay = ligand displacement in cells, radioligand; quantity = pKi; result = 7.43
SMILES = CCCCCn1cc(C(=O)Cc2ccccc2OC)c2ccccc21; target = CNR1; assay = binding, SPR; quantity = pKd; result = 11.18
SMILES = CCCCCn1cc(C(=O)c2cccc3ccccc23)c2ccccc21; target = CNR1 I267L; assay = G protein activation, agonist, BRET; quantity = pEC50; result = 7.38
SMILES = CCOC(=O)[C@@](CC)(CCCSCCOCCOCCNc1ccc([N+](=O)[O-])c2nonc12)NC(=O)c1ccc(C2CC2)c(Cc2ccc(F)cc2)n1; target = CNR1; assay = cAMP, agonist; quantity = pEC50; result = < 5.00
SMILES = CCCCCn1cc(C(=O)c2ccc(OC)cc2)c2ccccc21; target = CNR1; assay = ligand displacement, radioligand; setting = cell membranes; quantity = pIC50; result = 4.82
SMILES = CCCCn1c2ccccc2c2cc(C(=O)c3cccc4ccccc34)ccc21; target = CNR1; assay = GTPγS binding, agonist, radiometric; setting = cell membranes; quantity = pEC50; result = 6.99
SMILES = COCCn1c(C)c(C)s/c1=N\C(=O)C1C(C)(C)C1(C)C; target = CNR1; quantity = pKi; result = 6.94
SMILES = O=C(c1ccc2c(c1)c1ccccc1n2CCN1CCOCC1)c1cccc2ccccc12; target = CNR1; assay = cAMP, agonist, BRET; quantity = pEC50; result = 7.59
SMILES = CCCCCn1cc(C(=O)c2ccc3ccccc3c2)c2ccccc21; target = CNR1; assay = G protein activation, agonist, BRET; quantity = pEC50; result = 6.99
SMILES = O=C(c1ccc2c(c1)c1ccccc1n2CC1CCOCC1)c1cccc2ccccc12; target = CNR1; assay = cAMP, agonist, BRET; quantity = pEC50; result = 8.12
SMILES = CCCCCn1cc(C(=O)c2ccc(CC)c3ccccc23)c2ccccc21; target = CNR1; assay = ligand displacement, radioligand; setting = cell membranes; quantity = pIC50; result = 7.24
SMILES = CN1CCCCC1Cn1c2ccccc2c2cc(C(=O)c3cccc4ccccc34)ccc21 (centres unmarked); target = CNR1; assay = cAMP, agonist, BRET; quantity = pEC50; result = 6.88
SMILES = CCCCCn1cc(C(=O)c2cccc3c2CC(C)(C)C3)c2ccccc21; target = CNR1; assay = β-arrestin recruitment, agonist, BRET; quantity = pEC50; result = 6.20
SMILES = CCCCCCn1c2ccccc2c2cc(C(=O)c3cccc4ccccc34)ccc21; target = CNR1; assay = cAMP, agonist, BRET; quantity = pEC50; result = 6.47
SMILES = O=C(NC12CC3CC(CC(C3)C1)C2)c1nn(CCCCCF)c2ccccc12; target = CNR1; assay = ligand displacement in cells, radioligand; quantity = pKi; result = 8.51

For quick reference, copied from above:
SMILES = CC1=C[C@H]2c3c(O)cc(CCc4ccccc4)cc3OC(C)(C)[C@H]2CC1; target = CNR1; assay = GTPγS binding, agonist, radiometric; setting = cell membranes; quantity = pEC50; result = 6.39
